Published values collected from several papers.
Each line is one published result; not all experiments were run side by side. “And” joins repeats or separate records; there may be more than shown. ± marks the error that the study gave.

SMILES | test | system | conditions | how to read | measurement | value
CCC1=C[C@@H]2CN(C1)Cc1c([nH]c3ccccc13)[C@@](C(=O)OC)(c1cc3c(cc1OC)N(C)[C@H]1[C@@](O)(C(=O)OC)[C@H](OC(C)=O)[C@]4(CC)C=CCN5CC[C@]31[C@@H]54)C2 | – | mice | – | – | NOAEL | 30 mg/m²
O=c1[nH]c(Cc2ccccn2)nc2c1cnn2C1CCOCC1 | – | healthy men, extensive metabolizers, plasma | oral, 100 mg single dose, tablet, median | – | Tmax | 0.5 h
CC(=O)N[C@@H](CSC(Cl)=CCl)C(=O)O | histopathology | Sprague-Dawley rats, male, kidney | ip, 230 µmol/kg, 24 h | relative to: region | necrotic proximal tubules | > 75%
[123I]c1cncc(OC[C@@H]2CCN2)c1 | SPECT | human, fusiform gyrus | intravenous bolus, 9.1 mCi | relative to: tissue over plasma | tissue/plasma ratio | 11.1
Cc1nc(Nc2ncc(C(=O)Nc3c(C)cccc3Cl)s2)cc(N2CCN(CCO)CC2)n1 | – | male C57BL/6 mouse wild type, plasma | oral, 10 mg/kg | – | terminal half-life | 4.05 ± 2.44 h
CC[C@H](C)[C@H](NC(=O)[C@@H](N)CCCNC(=N)N)C(=O)N[C@H](C(=O)N1CCC[C@H]1C(=O)N[C@@H](C)C(N)=O)C(C)C | – | healthy humans, both sexes, plasma | intravenous infusion, 6.5 mg/kg daily, day 7, multiple doses, 4 min infusion | – | MRT | 3 min
COC(=O)N[C@H](C(=O)N1CCC[C@H]1C(=O)Nc1ccc([C@@H]2CC[C@@H](c3ccc(NC(=O)[C@@H]4CCCN4C(=O)[C@@H](NC(=O)OC)C(C)C)cc3)N2c2ccc(C(C)(C)C)cc2)cc1)C(C)C | – | healthy human volunteers, plasma | oral, dose not given, rosuvastatin interaction study | relative to: given without rosuvastatin | AUC(0-24) | 1020 ng·h/mL
CSCC[C@H](NC(=O)[C@@H](N)CCC(=O)O)C(=O)N[C@@H](CCCNC(=N)N)C(=O)N[C@@H](CC(C)C)C(=O)N[C@@H](CO)C(=O)N[C@@H](CCCCN)C(=O)N[C@@H](CC1CCCCC1)C(=O)N[C@@H](Cc1ccccc1)C(=O)N[C@@H](CCCNC(=N)N)C(=O)N[C@@H](CC(=O)O)C(=O)N[C@@H](Cc1ccccc1)C(=O)N[C@@H](CC1CCCCC1)C(=O)N[C@@H](CC(C)C)C(=O)N[C@@H](CCC(N)=O)C(=O)N[C@@H](CCCNC(=N)N)C(=O)N[C@@H](CCCCN)C(=O)N[C@@H](CCCCN)C(=O)O | – | rabbit erythrocytes | concentration not given, 30 min, 37 °C | relative to: Triton X-100 | hemolysis | not toxic
O[C@H]1CCCN[C@@H]1CCCn1cnc2c(Cl)c(Cl)ccc21 | – | healthy volunteers, urine | oral, 300 mg capsule single, geometric mean | – | renal clearance (0-72 h) | 244 mL/min
CSCC[C@@H]1NC(=O)[C@H](CC(=O)O)NC(=O)CNC(=O)[C@H](CCCNC(=N)N)NC(=O)[C@H](C)NC(=O)[C@H](CCC(=O)O)NC(=O)[C@H](CCCNC(=N)N)NC(=O)[C@@H]2CSSC[C@@H]3NC(=O)[C@H](CO)NC(=O)[C@H]([C@@H](C)O)NC(=O)[C@@H]4CCCN4C(=O)[C@H](C)NC(=O)[C@H](Cc4c[nH]c5ccccc45)NC(=O)[C@H](CC(=O)O)NC(=O)CNC(=O)[C@H](CCCNC(=N)N)NC(=O)CNC(=O)[C@H](CCC(N)=O)NC(=O)[C@@H]4CCCN4C(=O)[C@@H](NC(=O)CNC(=O)C(C)F)CSSC[C@H](NC(=O)CNC(=O)[C@H](C)NC(=O)[C@H](CC(C)C)NC(=O)[C@H](CSSC[C@@H](C(=O)NCC(N)=O)NC(=O)[C@H]([C@@H](C)O)NC(=O)[C@H](CCCNC(=N)N)NC(=O)[C@@H]4CCCN4C1=O)NC(=O)[C@H](CC(=O)O)NC(=O)[C@H](CO)NC(=O)[C@H](CC(=O)O)NC(=O)[C@H](CCC(N)=O)NC(=O)[C@H](CO)NC3=O)C(=O)N[C@@H](C(C)C)C(=O)N2 (some centres unmarked) [fluorine-18 labelled] | – | nude mice U-87 MG xenograft, intestine | intravenous, 0.5 h | – | tissue uptake | 1.28 ± 0.32 %ID/g
ClC=C(Cl)Cl | – | human, venous blood | inhalation, 100 ppmv for 4 h | – | compartment 2 half-life | 1.08 h and 5.5 h
CN[C@@](C)(C[18F])C(=O)O | – | SCID mice (MDA-MB-468 xenograft) | 120 min after injection | – | tumour uptake | 4.1 ± 0.7 %ID/g
CN1C(=CC=C2CCCC(=CC=C3N(CCCCCC(=O)O)c4ccccc4C3(C)C)C2=O)C(C)(C)c2ccccc21 | – | phosphate buffer-acetonitrile | pH 7.5, 25 °C | – | emission maximum | 643 nm
COc1cc(/C=C/c2cc(O)cc(O)c2)ccc1O | LC-MS/MS | mouse, serum | oral, 150 mg/kg | – | Cmax | 47.9 µM
CC(C)[C@H](NC(=O)[C@@H]1CCCN1C(=O)[C@H](CCCNC(=N)N)NC(=O)[C@H](CO)NC(=O)[C@H](CCCCN)NC(=O)[C@H](C)NC(=O)[C@H](Cc1c[nH]cn1)NC(=O)CNC(=O)[C@H](CCCNC(=N)N)NC(=O)[C@H](CCCCN)NC(=O)[C@@H](NC(=O)[C@H](CO)NC(=O)[C@H](Cc1c[nH]cn1)NC(=O)[C@@H](NC(=O)CNC(=O)[C@H](CCC(=O)O)NC(=O)[C@H](Cc1c[nH]cn1)NC(=O)[C@H](CC(=O)O)NC(=O)[C@H](C)NC(=O)[C@H](CCC(=O)O)NC(=O)[C@H](CO)NC(=O)CNC(=O)[C@H](C)NC(=O)[C@H](CCC(=O)O)NC(=O)[C@@H](N)CC(=O)O)[C@@H](C)O)[C@@H](C)O)C(=O)O | LC-MS/MS | human serum | concentration not given, 4 h, room temperature, tube without gel separator | relative to: initial concentration | change in serum concentration | -19 ± 12%
COC(=O)c1ccc(Nc2ccc3c(c2)C(c2ccccc2F)=NC(C)C(=O)N3)cc1 (centres unmarked) | shake flask | PBS | 24 h, pH 7.4 | – | solubility | < 1 µM
CCCCCOc1ccc(-c2ccc(-c3ccc(C(=O)N[C@H]4C[C@@H](O)[C@@H](O)NC(=O)[C@@H]5[C@@H](O)[C@@H](C)CN5C(=O)[C@H]([C@@H](C)O)NC(=O)[C@H]([C@H](O)[C@@H](O)c5ccc(O)cc5)NC(=O)[C@@H]5C[C@@H](O)CN5C(=O)[C@H]([C@@H](C)O)NC4=O)cc3)cc2)cc1 | – | human infants, plasma | intravenous, 3 mg/kg loading dose, 24 h | – | trough concentration | 2300 ng/mL
CC(C)C(=O)OC[C@H]1O[C@@H](n2ccc(NO)nc2=O)[C@H](O)[C@@H]1O | – | rat blood dialysate | 250 ng/mL, 4 weeks, -20 °C, long-term storage, added: NHC 1000 ng/mL | – | remaining compound | 95.69 ± 0.04%
CCCCCCCCCCCCCCCC[N+](C)(C)C | in vitro-in vivo extrapolation | human | – | – | hepatic clearance | 0.262 mL/h/g liver
NCC(=O)O | – | – | pH 7 | – | logD | 0
N.N.[Cl][Pt][Cl] | – | patients advanced solid tumours | day 1 dosing, added: eribulin mesylate 1.2 mg/m^2 | – | maximum tolerated dose | 75 mg/m²
CC(=O)N[C@H](CCCCNC(=O)C(C)F)C(=O)N[C@@H](CS)C(=O)N[C@@H](CS)C(=O)N[C@@H](CCC(=O)O)C(=O)N[C@@H](Cc1c[nH]cn1)C(=O)N[C@H](Cc1ccccc1)C(=O)N[C@@H](CCCNC(=N)N)C(=O)N[C@@H](Cc1c[nH]c2ccccc12)C(=O)N[C@@H](CS)C(=O)N[C@@H](CCCNC(=N)N)C(=O)N1CCC[C@H]1C(=O)N[C@H](C(N)=O)C(C)C (some centres unmarked) [fluorine-18 labelled] | – | C57BL/6 mice, male, B16-F10 tumour, kidney | intravenous, 4 h | – | tissue uptake | 4.41 ± 0.78 %ID/g
CNC(=O)c1ccc(-c2cnn3ccc(C(=O)N(C)c4ccc(Cl)c(C(=O)OC)c4)cc23)cc1 | – | Wistar rats, both sexes, plasma | oral, 250 mg/kg/day, day 1, 2-week toxicology study | – | AUC(0-8 h) | 5.24 ng·h/mL

Excerpt of the above:
SMILES | test | system | conditions | how to read | measurement | value
CC(C)C(=O)OC[C@H]1O[C@@H](n2ccc(NO)nc2=O)[C@H](O)[C@@H]1O | – | rat blood dialysate | 250 ng/mL, 4 weeks, -20 °C, long-term storage, added: NHC 1000 ng/mL | – | remaining compound | 95.69 ± 0.04%
CC(=O)N[C@H](CCCCNC(=O)C(C)F)C(=O)N[C@@H](CS)C(=O)N[C@@H](CS)C(=O)N[C@@H](CCC(=O)O)C(=O)N[C@@H](Cc1c[nH]cn1)C(=O)N[C@H](Cc1ccccc1)C(=O)N[C@@H](CCCNC(=N)N)C(=O)N[C@@H](Cc1c[nH]c2ccccc12)C(=O)N[C@@H](CS)C(=O)N[C@@H](CCCNC(=N)N)C(=O)N1CCC[C@H]1C(=O)N[C@H](C(N)=O)C(C)C (some centres unmarked) [fluorine-18 labelled] | – | C57BL/6 mice, male, B16-F10 tumour, kidney | intravenous, 4 h | – | tissue uptake | 4.41 ± 0.78 %ID/g
CC[C@H](C)[C@H](NC(=O)[C@@H](N)CCCNC(=N)N)C(=O)N[C@H](C(=O)N1CCC[C@H]1C(=O)N[C@@H](C)C(N)=O)C(C)C | – | healthy humans, both sexes, plasma | intravenous infusion, 6.5 mg/kg daily, day 7, multiple doses, 4 min infusion | – | MRT | 3 min
